Measurements gathered from unrelated publications.
Protocols differ between the studies behind these lines. Values joined by “and” are separate records of one study, mostly repeats; a detail may differ. Numbers after ± are the reported error.
C3AR1: C3a anaphylatoxin chemotactic receptor (C3AR1, Homo sapiens, UniProt Q16581)
UniProt Q16581, sequence (whole entry, looked up): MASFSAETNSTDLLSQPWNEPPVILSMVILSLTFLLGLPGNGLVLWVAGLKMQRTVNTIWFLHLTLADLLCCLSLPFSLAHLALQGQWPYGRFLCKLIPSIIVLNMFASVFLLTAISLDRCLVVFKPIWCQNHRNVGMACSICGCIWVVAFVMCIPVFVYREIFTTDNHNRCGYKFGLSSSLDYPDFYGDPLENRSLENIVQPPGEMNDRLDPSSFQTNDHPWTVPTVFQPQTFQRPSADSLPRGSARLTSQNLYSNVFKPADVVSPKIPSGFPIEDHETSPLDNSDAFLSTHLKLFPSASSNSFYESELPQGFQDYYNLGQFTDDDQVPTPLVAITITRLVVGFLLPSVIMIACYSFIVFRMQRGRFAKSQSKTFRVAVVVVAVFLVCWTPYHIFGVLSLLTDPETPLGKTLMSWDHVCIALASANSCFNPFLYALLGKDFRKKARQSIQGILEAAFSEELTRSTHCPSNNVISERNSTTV
UniProt Q8NH00, sequence (whole entry, looked up): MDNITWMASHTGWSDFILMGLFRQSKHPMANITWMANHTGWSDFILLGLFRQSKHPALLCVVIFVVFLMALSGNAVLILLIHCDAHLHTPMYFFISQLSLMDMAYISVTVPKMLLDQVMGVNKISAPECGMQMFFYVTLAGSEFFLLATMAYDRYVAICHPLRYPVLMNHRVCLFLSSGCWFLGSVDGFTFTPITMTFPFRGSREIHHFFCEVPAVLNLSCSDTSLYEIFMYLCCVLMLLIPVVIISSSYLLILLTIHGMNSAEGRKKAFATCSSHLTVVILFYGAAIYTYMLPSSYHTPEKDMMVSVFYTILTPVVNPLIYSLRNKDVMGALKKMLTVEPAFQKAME
UniProt P47870, sequence (whole entry, looked up): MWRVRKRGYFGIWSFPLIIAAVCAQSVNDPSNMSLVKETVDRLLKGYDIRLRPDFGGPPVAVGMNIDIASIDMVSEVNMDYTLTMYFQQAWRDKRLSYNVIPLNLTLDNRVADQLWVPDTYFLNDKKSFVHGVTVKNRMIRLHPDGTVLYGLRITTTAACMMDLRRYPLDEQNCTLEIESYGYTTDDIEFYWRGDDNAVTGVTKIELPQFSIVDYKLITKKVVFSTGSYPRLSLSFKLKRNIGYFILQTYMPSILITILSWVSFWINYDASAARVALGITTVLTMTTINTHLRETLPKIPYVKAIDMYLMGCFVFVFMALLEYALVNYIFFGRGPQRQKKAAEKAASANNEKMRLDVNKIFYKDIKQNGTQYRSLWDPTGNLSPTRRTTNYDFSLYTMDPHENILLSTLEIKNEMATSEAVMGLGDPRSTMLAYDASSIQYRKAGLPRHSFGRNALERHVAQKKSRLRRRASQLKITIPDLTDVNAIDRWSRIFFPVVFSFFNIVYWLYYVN
UniProt P30542, sequence (whole entry, looked up): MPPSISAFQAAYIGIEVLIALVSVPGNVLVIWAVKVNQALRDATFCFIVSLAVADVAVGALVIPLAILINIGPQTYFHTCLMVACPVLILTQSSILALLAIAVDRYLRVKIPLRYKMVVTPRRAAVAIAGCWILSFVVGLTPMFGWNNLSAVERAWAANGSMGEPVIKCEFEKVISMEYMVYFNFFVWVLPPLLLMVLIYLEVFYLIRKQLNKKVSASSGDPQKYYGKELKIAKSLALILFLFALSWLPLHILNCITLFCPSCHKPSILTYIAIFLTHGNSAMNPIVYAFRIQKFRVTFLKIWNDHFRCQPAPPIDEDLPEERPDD
UniProt P41968, sequence (whole entry, looked up): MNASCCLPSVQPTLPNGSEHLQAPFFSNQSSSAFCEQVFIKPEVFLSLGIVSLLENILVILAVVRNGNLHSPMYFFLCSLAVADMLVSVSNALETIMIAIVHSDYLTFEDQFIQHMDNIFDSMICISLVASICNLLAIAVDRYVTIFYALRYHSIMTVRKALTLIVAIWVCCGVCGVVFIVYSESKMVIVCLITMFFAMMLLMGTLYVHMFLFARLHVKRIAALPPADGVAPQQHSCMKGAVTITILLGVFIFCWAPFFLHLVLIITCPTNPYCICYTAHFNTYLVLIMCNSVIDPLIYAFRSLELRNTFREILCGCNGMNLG
UniProt P17948, sequence (whole entry, looked up): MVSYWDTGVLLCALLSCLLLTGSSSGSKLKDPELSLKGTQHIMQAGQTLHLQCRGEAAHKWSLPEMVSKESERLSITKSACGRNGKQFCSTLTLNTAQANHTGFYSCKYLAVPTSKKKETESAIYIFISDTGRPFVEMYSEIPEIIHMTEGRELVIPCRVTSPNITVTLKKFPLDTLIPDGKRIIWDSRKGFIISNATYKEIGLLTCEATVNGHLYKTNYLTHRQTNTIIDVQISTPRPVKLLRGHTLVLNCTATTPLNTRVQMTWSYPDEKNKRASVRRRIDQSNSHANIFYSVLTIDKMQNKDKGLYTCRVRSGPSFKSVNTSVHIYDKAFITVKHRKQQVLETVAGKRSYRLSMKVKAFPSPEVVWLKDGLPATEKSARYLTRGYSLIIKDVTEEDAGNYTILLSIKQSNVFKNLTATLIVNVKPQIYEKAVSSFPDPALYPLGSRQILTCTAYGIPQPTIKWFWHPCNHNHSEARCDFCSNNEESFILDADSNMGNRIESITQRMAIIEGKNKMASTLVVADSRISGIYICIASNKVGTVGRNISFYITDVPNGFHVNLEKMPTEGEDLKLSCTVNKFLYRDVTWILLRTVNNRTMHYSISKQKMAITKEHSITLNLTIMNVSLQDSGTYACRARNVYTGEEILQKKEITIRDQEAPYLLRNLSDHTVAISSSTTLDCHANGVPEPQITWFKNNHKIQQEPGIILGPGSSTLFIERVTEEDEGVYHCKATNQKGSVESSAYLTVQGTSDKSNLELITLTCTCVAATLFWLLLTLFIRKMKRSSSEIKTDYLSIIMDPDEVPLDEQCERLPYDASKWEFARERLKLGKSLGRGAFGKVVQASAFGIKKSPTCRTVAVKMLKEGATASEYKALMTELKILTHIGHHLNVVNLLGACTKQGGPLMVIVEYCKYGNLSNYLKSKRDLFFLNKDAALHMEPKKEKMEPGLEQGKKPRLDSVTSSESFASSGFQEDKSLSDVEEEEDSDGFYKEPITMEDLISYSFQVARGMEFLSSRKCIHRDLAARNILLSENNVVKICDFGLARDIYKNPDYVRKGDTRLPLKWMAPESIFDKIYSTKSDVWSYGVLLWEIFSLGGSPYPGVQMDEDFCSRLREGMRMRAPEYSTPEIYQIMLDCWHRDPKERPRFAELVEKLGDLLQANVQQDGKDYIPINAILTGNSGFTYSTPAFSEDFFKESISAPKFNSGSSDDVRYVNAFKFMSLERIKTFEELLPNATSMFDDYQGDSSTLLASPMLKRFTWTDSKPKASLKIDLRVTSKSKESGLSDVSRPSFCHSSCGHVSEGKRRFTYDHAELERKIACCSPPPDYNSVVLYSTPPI
UniProt P49685, sequence (whole entry, looked up): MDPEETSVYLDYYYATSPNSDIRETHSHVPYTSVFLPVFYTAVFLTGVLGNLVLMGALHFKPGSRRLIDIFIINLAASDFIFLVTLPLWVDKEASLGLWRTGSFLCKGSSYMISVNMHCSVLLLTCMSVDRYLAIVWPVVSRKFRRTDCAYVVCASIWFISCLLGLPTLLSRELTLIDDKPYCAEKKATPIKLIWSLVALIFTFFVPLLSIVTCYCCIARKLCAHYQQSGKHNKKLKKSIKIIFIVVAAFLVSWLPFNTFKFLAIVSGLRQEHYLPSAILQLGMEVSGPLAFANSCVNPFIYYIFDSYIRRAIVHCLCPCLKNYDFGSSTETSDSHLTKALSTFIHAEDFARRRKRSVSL
UniProt P03372, sequence (whole entry, looked up): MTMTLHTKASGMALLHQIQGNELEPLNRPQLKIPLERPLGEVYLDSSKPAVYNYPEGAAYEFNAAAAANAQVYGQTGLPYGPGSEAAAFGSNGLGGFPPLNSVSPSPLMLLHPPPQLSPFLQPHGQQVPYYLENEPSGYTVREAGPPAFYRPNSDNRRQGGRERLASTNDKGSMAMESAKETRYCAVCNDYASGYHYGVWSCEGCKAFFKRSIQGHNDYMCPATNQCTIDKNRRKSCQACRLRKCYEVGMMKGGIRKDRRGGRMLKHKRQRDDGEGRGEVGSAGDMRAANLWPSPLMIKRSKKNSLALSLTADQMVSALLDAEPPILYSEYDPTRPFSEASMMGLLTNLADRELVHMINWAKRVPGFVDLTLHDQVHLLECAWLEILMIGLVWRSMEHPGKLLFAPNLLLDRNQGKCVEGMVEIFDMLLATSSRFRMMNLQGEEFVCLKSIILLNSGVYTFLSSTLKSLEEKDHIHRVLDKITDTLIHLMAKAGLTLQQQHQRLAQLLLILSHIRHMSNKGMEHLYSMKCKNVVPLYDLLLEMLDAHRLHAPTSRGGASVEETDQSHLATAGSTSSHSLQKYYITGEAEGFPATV
UniProt P18507, sequence (whole entry, looked up): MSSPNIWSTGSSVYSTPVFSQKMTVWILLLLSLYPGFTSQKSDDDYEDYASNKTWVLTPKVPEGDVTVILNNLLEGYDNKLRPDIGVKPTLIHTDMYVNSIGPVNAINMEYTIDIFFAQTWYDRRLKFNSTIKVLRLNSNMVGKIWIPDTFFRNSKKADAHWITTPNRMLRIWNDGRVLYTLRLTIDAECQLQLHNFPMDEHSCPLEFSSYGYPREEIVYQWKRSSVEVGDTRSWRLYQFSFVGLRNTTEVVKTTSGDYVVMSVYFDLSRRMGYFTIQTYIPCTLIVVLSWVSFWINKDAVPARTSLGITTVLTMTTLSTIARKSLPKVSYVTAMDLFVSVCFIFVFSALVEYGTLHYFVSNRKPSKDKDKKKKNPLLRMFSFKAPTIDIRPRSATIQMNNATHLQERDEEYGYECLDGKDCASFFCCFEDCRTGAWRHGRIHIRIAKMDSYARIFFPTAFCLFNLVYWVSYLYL

Compound | target | assay | system | conditions | EC50
CC/C(=C(\c1ccccc1)c1ccc(OCCN(C)CCCCCCC(=O)NCCc2c[nH]c3ccc(OC)cc23)cc1)c1ccccc1 | Melatonin receptor type 1A (MTNR1A, Homo sapiens, UniProt P48039) | phosphorylation in cells, agonist, AlphaScreen | – | – | 308 nM
O=S(=O)(Oc1ccc(Cl)cc1)C1CC2OC1C(c1ccc(O)cc1)=C2c1ccc(O)cc1 (racemic) | Estrogen receptor (ESR1, Homo sapiens, UniProt P03372) | reporter gene, agonist, luciferase | – | – | 360 nM
CC1(C)O[C@@H]2[C@H](O1)[C@H]1COP(=O)([O-])OP(=O)(O)OC[C@H]3O[C@H]([C@H](O)[C@@H]3O)[n+]3cnc4c(ncn4[C@@H]2O1)c3N | cADPR receptor, sea urchin | Ca2+ release, agonist | sea urchin egg homogenate | – | 12000 nM
CC(C)C[C@@H]1NC(=O)[C@H](CCCNC(=N)N)NC(=O)[C@H](C(C)C)NC(=O)[C@H](Cc2c[nH]cn2)NC(=O)[C@H](Cc2c[nH]cn2)NC(=O)CNC(=O)[C@H](CCCCN)NC(=O)[C@H](CC(C)C)NC(=O)[C@H](CC(N)=O)NC(=O)[C@H]([C@@H](C)O)NC(=O)[C@H](CO)NC(=O)[C@H](CC(N)=O)NC(=O)[C@@H]2CCCN2C(=O)[C@H](CO)NC(=O)[C@@H]2CCCN2C(=O)[C@H](C(C)C)NC(=O)[C@H](CCCNC(=N)N)NC(=O)[C@H](Cc2c[nH]cn2)NC(=O)[C@@H]2CSSC[C@H](NC1=O)C(=O)N[C@@H](CCCCN)C(=O)N1CCC[C@H]1C(=O)N[C@H](C(=O)N[C@@H](CCCCN)C(=O)N[C@@H](CC(C)C)C(=O)N[C@@H](CCC(=O)O)C(=O)N1CCC[C@H]1C(=O)N[C@@H](CCC(=O)O)C(=O)N1CCC[C@H]1C(=O)N[C@@H](CCCNC(=N)N)C(=O)N[C@@H](CC(C)C)C(=O)N[C@@H](Cc1c[nH]c3ccccc13)C(=O)N[C@H](C(=O)N[C@H](C(=O)N1CCC[C@H]1C(=O)NCC(=O)N[C@@H](C)C(=O)N[C@@H](CC(C)C)C(=O)N1CCC[C@H]1C(=O)N[C@@H](CCC(N)=O)C(=O)N[C@H](C(=O)O)C(C)C)C(C)C)C(C)C)CSSC[C@H](NC(=O)[C@H](CC(C)C)NC(=O)[C@H](CCCNC(=N)N)NC(=O)[C@@H](NC(=O)[C@H](CCCNC(=N)N)NC(=O)[C@H](CCCNC(=N)N)NC(=O)CNC(=O)[C@H](CO)NC(=O)[C@H](Cc1c[nH]c3ccccc13)NC(=O)[C@H](C)NC(=O)[C@H](CCCCN)NC(=O)[C@H](C)NC(=O)[C@@H]1CCCN1C(=O)[C@H](CCCNC(=N)N)NC(=O)[C@H](CCCNC(=N)N)NC(=O)[C@@H](N)CCCCN)[C@@H](C)O)C(=O)N2 | G-protein coupled receptor 15, with Gi1 (Homo sapiens, UniProt P49685) | Gi1 activation, agonist, BRET | HEK293A transfected GPR15 | – | 16.2 nM
CC(C)C[C@H](NC(=O)[C@H](C)NC(=O)[C@H](CO)NC(=O)[C@@H]1CCCN1C(=O)[C@@H]1CCCN1C(=O)[C@H](CCC(N)=O)NC(=O)[C@H](CC(C)C)NC(=O)[C@@H](N)[C@@H](C)O)C(=O)N[C@@H](CCCNC(=N)N)C(=O)N[C@@H](CCCNC(=N)N)C(=O)N[C@@H](CCCNC(=N)N)C(=O)N[C@@H](Cc1c[nH]cn1)C(=O)N[C@@H](Cc1ccc(O)cc1)C(=O)N[C@@H](Cc1c[nH]cn1)C(=O)N[C@@H](Cc1c[nH]cn1)C(=O)N[C@@H](C)C(=O)N[C@@H](CC(C)C)C(=O)N1CCC[C@H]1C(=O)N1CCC[C@H]1C(=O)N[C@@H](CO)C(=O)N[C@@H](CCCNC(=N)N)C(=O)O | C3AR1 | cAMP, agonist, luciferase | – | – | 107 nM
CC[C@H](C)NC(=O)/C(=C\Nc1ccc(Cl)cc1)C(=O)c1ccccc1Cl | GABA A receptor alpha-2/beta-2/gamma-2 (Homo sapiens, UniProt P18507+P47869+P47870) | GABA current potentiation, positive modulator, two-electrode voltage clamp | Xenopus laevis oocytes | 30 s preincubation, with: GABA EC10 | 160 ± 40 nM
N=C(N)NCCC[C@H](NC(=O)[C@H](CC(=O)O)NC(=O)[C@@H]1CSCCC(=O)NCC(=O)N[C@@H](Cc2c[nH]cn2)C(=O)N[C@H](Cc2ccccc2)C(=O)N[C@@H](CCCNC(=N)N)C(=O)N[C@H](Cc2c[nH]c3ccccc23)C(=O)N1)C(=O)N[C@@H](Cc1ccccc1)C(=O)NCC(N)=O | Melanocortin receptor 3 (MC3R, Homo sapiens, UniProt P41968) | cAMP, agonist | – | – | 1100 nM
COc1cc(-c2cnc3nc2NCCCNS(=O)(=O)c2cc(ccc2OC)N3)ccc1F | Vascular endothelial growth factor receptor 1 (FLT1, Homo sapiens, UniProt P17948) | target engagement in cells, BRET | – | – | 42000 nM
CCCn1c(=O)c2[nH]c(-c3ccc(OCC(=O)NCCNC(=O)CCCCCNC(=O)COc4ccc(/C=C/C5=[N+]6C(=Cc7ccc(-c8cccs8)n7[B-]6(F)F)C=C5)cc4)cc3)nc2n(CCC)c1=O | Adenosine receptor A1 (ADORA1, Homo sapiens, UniProt P30542) | reporter gene, agonist | – | – | 117 nM
CC(C=O)Cc1ccc(C(C)(C)C)cc1 (centres unmarked) | Olfactory receptor 2T4 (OR2T4, Homo sapiens, UniProt Q8NH00) | GFP reporter gene, agonist | yeast expressing OR2T4 | 4 h, 1% DMSO | 107000 nM and 110000 nM
CC(C)C[C@H](NC(=O)CNC(=O)[C@H](CC(C)C)NC(=O)[C@H](CCCCN)NC(=O)[C@H](CO)NC(=O)[C@H](C)NC(=O)[C@H](CCCN=C(N)N)NC(=O)[C@H](Cc1ccc(O)cc1)NC(=O)[C@H](CCCCN)NC(=O)[C@H](CCCCN)NC(=O)CNC(=O)[C@H](Cc1c[nH]c2ccccc12)NC(=O)[C@@H](N)Cc1c[nH]c2ccccc12)C(=O)N[C@@H](C)C(=O)N[C@@H](CCCN=C(N)N)C(=O)O | C3AR1 | β-arrestin1 recruitment, agonist, BRET | – | with: GRK2 co-expression | 5.4 nM

Some of these lines once more:
Compound | target | assay | system | conditions | EC50
CC(C)C[C@H](NC(=O)CNC(=O)[C@H](CC(C)C)NC(=O)[C@H](CCCCN)NC(=O)[C@H](CO)NC(=O)[C@H](C)NC(=O)[C@H](CCCN=C(N)N)NC(=O)[C@H](Cc1ccc(O)cc1)NC(=O)[C@H](CCCCN)NC(=O)[C@H](CCCCN)NC(=O)CNC(=O)[C@H](Cc1c[nH]c2ccccc12)NC(=O)[C@@H](N)Cc1c[nH]c2ccccc12)C(=O)N[C@@H](C)C(=O)N[C@@H](CCCN=C(N)N)C(=O)O | C3AR1 | β-arrestin1 recruitment, agonist, BRET | – | with: GRK2 co-expression | 5.4 nM
